Results pooled from the literature.
Parts stem from different laboratories: compare values within a part only.
Chain of UniProt P50750 (whole entry, looked up): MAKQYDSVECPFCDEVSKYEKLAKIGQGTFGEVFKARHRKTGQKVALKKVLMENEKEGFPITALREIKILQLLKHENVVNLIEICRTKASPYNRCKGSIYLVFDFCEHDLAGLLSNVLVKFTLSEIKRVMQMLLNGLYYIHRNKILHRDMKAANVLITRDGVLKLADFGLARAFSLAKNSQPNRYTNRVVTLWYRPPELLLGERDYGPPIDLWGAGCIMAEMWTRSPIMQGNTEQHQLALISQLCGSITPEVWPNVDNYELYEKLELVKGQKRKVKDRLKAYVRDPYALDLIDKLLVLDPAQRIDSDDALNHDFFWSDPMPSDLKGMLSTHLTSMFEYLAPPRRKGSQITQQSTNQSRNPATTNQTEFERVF
Chain of UniProt Q06187 (whole entry, looked up): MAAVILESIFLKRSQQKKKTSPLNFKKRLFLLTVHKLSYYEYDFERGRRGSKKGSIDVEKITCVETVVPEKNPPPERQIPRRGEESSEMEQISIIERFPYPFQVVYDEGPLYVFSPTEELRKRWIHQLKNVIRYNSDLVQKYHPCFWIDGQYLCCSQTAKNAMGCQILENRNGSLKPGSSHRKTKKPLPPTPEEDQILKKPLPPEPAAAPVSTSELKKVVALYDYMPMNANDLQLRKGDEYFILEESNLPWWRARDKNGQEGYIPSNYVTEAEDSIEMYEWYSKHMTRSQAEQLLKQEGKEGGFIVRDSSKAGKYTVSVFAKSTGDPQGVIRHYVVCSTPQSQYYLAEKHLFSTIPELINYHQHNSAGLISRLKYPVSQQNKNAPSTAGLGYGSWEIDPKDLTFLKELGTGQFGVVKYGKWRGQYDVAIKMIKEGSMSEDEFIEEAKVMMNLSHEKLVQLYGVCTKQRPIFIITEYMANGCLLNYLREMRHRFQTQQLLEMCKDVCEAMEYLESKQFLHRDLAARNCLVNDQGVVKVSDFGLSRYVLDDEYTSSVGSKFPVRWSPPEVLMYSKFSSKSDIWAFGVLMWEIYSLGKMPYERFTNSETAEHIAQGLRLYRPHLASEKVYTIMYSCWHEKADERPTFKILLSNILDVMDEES
Chain of UniProt O14757 (whole entry, looked up): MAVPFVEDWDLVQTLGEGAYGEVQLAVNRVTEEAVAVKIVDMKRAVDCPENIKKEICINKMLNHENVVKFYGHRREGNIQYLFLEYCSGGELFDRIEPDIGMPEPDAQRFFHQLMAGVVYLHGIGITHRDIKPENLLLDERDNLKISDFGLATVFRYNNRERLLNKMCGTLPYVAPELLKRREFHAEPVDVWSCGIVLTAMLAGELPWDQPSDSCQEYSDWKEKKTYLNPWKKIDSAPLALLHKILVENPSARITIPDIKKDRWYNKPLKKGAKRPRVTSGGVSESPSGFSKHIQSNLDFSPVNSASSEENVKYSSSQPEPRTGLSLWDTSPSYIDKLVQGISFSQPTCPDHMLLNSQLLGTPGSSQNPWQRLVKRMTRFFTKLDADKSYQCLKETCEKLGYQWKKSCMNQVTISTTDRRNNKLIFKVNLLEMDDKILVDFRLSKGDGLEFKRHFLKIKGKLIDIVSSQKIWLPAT
Chain of UniProt Q9Y243 (whole entry, looked up): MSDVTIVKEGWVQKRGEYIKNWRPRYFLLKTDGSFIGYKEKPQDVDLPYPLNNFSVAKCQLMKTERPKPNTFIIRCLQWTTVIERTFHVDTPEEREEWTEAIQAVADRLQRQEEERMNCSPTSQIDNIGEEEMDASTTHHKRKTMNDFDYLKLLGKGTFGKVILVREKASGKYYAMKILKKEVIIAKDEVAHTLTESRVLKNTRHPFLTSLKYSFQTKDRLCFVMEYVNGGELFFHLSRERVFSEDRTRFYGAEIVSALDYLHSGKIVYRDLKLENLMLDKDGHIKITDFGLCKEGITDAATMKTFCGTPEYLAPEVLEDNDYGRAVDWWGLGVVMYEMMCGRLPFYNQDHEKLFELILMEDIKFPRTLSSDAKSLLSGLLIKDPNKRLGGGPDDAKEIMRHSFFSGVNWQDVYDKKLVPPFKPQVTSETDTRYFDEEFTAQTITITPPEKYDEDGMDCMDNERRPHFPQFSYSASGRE
Chain of UniProt Q12851 (whole entry, looked up): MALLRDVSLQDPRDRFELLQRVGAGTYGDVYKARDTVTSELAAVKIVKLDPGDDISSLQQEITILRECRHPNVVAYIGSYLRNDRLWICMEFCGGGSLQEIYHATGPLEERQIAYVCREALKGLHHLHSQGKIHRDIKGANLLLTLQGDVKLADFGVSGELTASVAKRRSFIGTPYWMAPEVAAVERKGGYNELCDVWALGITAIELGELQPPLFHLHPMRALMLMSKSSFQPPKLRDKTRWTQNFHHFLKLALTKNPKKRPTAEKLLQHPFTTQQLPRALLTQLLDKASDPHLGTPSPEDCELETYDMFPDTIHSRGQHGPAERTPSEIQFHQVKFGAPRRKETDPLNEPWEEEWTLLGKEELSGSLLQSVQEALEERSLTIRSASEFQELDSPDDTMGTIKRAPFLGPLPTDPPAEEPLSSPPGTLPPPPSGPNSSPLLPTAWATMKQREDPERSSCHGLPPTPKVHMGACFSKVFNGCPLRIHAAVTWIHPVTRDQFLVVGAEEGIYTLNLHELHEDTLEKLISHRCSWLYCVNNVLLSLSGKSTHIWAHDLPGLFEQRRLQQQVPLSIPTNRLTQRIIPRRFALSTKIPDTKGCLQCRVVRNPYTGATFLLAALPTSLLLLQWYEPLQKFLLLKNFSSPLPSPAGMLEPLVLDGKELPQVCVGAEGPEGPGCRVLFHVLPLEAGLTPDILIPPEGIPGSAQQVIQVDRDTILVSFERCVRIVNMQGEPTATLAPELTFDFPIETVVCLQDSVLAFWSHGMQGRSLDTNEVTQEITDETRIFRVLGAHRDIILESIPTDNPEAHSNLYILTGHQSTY
Chain of UniProt P52564 (whole entry, looked up): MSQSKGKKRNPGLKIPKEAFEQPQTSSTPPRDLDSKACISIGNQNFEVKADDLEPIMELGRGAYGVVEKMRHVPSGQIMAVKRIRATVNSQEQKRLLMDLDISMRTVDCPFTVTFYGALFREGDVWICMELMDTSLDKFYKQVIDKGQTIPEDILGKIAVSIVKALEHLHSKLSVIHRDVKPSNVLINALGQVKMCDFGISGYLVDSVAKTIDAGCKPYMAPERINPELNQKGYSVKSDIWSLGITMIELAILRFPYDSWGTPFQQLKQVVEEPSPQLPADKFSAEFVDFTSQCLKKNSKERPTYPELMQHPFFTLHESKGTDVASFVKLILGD
Chain of UniProt P68400 (whole entry, looked up): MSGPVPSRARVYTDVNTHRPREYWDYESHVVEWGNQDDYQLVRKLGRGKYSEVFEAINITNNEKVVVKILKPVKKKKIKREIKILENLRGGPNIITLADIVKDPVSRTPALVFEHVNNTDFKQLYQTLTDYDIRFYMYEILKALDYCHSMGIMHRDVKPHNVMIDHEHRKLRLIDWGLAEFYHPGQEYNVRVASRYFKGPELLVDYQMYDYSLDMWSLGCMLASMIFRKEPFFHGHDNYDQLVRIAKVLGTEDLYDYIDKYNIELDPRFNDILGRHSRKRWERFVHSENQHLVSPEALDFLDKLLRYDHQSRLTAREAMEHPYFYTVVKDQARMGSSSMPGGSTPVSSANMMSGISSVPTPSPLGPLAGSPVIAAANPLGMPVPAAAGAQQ
Chain of UniProt P54756 (whole entry, looked up): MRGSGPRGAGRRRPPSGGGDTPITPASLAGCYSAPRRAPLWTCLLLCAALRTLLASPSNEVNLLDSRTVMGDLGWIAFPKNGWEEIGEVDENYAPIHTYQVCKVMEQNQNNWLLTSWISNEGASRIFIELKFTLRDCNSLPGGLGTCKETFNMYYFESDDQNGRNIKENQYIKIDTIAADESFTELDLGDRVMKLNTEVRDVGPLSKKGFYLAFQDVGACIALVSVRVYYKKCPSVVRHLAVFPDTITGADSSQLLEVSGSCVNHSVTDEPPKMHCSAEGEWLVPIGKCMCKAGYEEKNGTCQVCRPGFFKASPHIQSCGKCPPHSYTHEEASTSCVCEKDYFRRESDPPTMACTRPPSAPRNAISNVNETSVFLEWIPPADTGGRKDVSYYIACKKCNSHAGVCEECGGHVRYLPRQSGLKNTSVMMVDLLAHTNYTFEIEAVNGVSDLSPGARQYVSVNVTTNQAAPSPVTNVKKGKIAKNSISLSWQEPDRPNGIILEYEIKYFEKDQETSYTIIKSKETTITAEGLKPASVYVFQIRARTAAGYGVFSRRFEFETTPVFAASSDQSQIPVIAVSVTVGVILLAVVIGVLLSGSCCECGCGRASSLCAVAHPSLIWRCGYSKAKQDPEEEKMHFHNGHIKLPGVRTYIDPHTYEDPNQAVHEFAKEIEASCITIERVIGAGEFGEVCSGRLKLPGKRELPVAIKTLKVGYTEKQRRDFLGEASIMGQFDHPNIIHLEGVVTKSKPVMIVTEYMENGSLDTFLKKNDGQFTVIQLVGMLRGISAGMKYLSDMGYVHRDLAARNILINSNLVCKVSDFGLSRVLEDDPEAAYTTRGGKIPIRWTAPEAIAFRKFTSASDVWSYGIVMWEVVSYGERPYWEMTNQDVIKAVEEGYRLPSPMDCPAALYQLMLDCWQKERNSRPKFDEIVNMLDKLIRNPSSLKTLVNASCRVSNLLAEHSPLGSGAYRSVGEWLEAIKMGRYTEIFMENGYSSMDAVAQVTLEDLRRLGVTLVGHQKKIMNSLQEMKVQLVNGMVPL

Sample 1 — measurement: patients with TEAE
SMILES: CC(C)n1cnc(-c2ccc(F)cc2)c1-c1ncc(C(=O)Nc2ccc(N3CCN(C)CC3)cc2)[nH]1
method = phase 2a trial; host = patients with idiopathic pulmonary fibrosis; dose = 30 mg once daily; notes = atopic dermatitis, grade 4; value = 0%
method = phase 2a trial; host = patients with idiopathic pulmonary fibrosis; dose = 30 mg once daily; notes = eye swelling, grade 3; value = 0%
method = phase 2a trial; host = idiopathic pulmonary fibrosis patients; route = oral; dose = 30 mg once daily; notes = GLDH increased, grade 4; value = 0%
method = phase 2a trial; host = idiopathic pulmonary fibrosis patients; route = oral; dose = dose not given; notes = urine red cells, grade 5, all arms; value = 0%
method = phase 2a trial; host = idiopathic pulmonary fibrosis patients; route = oral; dose = dose not given; notes = ESR increased, grade 2, all arms; value = 0%
method = phase 2a trial; host = idiopathic pulmonary fibrosis patients; route = oral; dose = 60 mg once daily; notes = disc protrusion, grade 4; value = 0%
method = phase 2a trial; host = idiopathic pulmonary fibrosis patients; route = oral; dose = 60 mg once daily; notes = blood/lymphatic disorders, grade 2; value = 0%
method = phase 2a trial; host = idiopathic pulmonary fibrosis patients; route = oral; dose = 60 mg once daily; notes = LDL increased, grade 5; value = 0%
method = phase 2a trial; host = patients with idiopathic pulmonary fibrosis; dose = 30 mg once daily; notes = renal and urinary disorders SOC, grade 3; value = 0%
refers to = erythrocyte sedimentation rate increased; host = idiopathic pulmonary fibrosis patients; dose = 30 mg once daily; value = 0%
method = phase 2a trial; host = patients with idiopathic pulmonary fibrosis; dose = dose not given; notes = allergic conjunctivitis, grade 1, all arms; value = 0%

Sample 2 — read-out: ligand displacement; concentration: 10 µM; measurement: inhibition
Target: Histamine H3 receptor (HRH3, Homo sapiens, UniProt Q9Y5N1)
Chain of UniProt Q9Y5N1 (whole entry, looked up): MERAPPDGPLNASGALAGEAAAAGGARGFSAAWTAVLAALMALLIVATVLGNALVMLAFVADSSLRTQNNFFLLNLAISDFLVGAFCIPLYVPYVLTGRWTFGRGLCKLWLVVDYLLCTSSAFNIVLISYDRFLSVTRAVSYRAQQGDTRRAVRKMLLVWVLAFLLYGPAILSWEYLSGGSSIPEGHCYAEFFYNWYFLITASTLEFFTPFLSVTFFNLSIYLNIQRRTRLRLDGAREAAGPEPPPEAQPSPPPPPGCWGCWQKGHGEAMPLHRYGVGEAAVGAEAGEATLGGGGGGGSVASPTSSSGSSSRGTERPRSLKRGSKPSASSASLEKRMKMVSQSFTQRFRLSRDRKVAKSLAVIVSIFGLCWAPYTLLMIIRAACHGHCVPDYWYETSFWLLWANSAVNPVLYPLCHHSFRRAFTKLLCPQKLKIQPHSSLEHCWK
Structure (SMILES) = CNC(=O)Nc1ccc2c(c1)CC[C@]21OC(=O)N(CC(=O)N(Cc2ccc(F)cc2)[C@@H](C)C(F)(F)F)C1=O; value = 0.39%
Structure (SMILES) = COc1ccc2cc(OCC3(C(=O)O)CN(C(=O)c4ccc(F)cc4)C3)ccc2c1; value = -15.3%
Structure (SMILES) = O=C(Nc1ccc(Oc2ccc(F)cc2)cc1)N1CCc2ncccc2[C@H]1c1ccc(F)cc1; value = 3.57%
Structure (SMILES) = COc1cccc(NC(=O)c2nc3scc(CN(C)Cc4ccccc4)c3c(=O)[nH]2)c1; value = 6.01%
Structure (SMILES) = CCC(=NO)C(C)=Cc1ccc(F)c(C)c1; value = -0.3%
Structure (SMILES) = CCOc1ccc(S(=O)(=O)Nc2ccc(Cl)cc2C#Cc2cnc(C(=O)O)cc2OC)c2ncccc12; value = -12.9%
Structure (SMILES) = N#CC1(c2ccccn2)CCN(Cc2cc(C(=O)N3CCCC3)c(=O)n3ccccc23)CC1; value = 11.2%
Structure (SMILES) = CC1CCN(c2ccnc(NCc3cn(C)cn3)n2)CC1; value = 35.1%
Structure (SMILES) = O=c1nc(-c2ccccn2)sc2ccccc12; value = 2%
Structure (SMILES) = c1ccc(C2CCN(c3cnc4c(N5CCOCC5)nccn34)CC2)cc1; value = 7.29%
Structure (SMILES) = CN([C@@H]1CCc2c(CC(=O)O)c3ccccc3n2C1)S(=O)(=O)c1ccc(F)cc1; value = 4.03%
Structure (SMILES) = NS(=O)(=O)c1cc(NC(=O)Cc2ccccc2)ccc1Oc1cccc(Cl)c1; value = -10.9%
Structure (SMILES) = C[C@@H]1CN(c2cc(-c3n[nH]c4ccc(OC5(C)CC5)cc34)ncn2)C[C@H](C)O1; value = -17.3%
Structure (SMILES) = O=C(N[C@H]1CCCCC/C=C\C2C[C@@]2(C(=O)O)NC(=O)[C@@H]2C[C@@H](Oc3ccncc3)CN2C1=O)OC1CCCC1 (some centres unmarked); value = 2.64%
Structure (SMILES) = Cn1cc(Cl)c2c(Oc3c(F)cc(Nc4cc(Cl)nc(N)n4)cc3F)ccnc21; value = 31%
Structure (SMILES) = C[C@H](c1ccnc(Nc2nc3ccc(-c4cc(N(C)C)ncn4)cc3[nH]2)c1)N1CCN(C(=O)CC(F)(F)F)CC1; value = -3.83%
Structure (SMILES) = COc1cc(N[C@@H]2CCCC[C@]2(O)C(F)(F)F)ccc1F; value = -2.34%
Structure (SMILES) = Cc1ccc(-c2cnc([C@@]3(O)CC[C@H](C(=O)O)C(C)(C)C3)s2)cc1Nc1cccc(C(F)(F)F)n1; value = 46.3%
Structure (SMILES) = COc1cc(-c2cn(C3CCc4c(F)cccc4N(CC(F)(F)F)C3=O)nn2)ccc1-n1cnc(C)c1 (centres unmarked); value = 23.3%
Structure (SMILES) = CN1CCN(c2ccnc(NCCc3ccccc3)n2)CC1; value = 86.2%
Structure (SMILES) = Cc1cc(Nc2nccc(C)n2)cc(-c2cnc([C@@]3(O)CC[C@H](C(=O)O)C(C)(C)C3)s2)c1; value = 50.4%
Structure (SMILES) = Nc1cnc(N2CCc3cc(S(=O)(=O)Nc4c(F)cc(Cl)cc4F)cc(N4CCCC4=O)c32)nc1; value = -1.21%
Structure (SMILES) = NC(=O)c1ccc2nc(-c3ccc(C4(N)CCC4)cc3)c(-c3ccccc3)n2n1; value = 14.6%
Structure (SMILES) = O=C(NCCCC1CCCCC1)c1ccc(CNC(=O)c2cnn(-c3ccccc3)c2C(F)(F)F)cc1; value = 9.12%
Structure (SMILES) = COc1cc(C(=O)O)ncc1C#Cc1ccccc1NS(=O)(=O)c1cccc2c(N(C)C)ccnc12; value = 6.76%

Sample 3 — read-out: enzyme activity; action: inhibitor; concentration: 0.5 µM; relative to: control; measurement: remaining activity
SMILES: O=C1Cc2c([nH]c3ccc([N+](=O)[O-])cc23)-c2ccccc2N1
target = RAC-gamma serine/threonine-protein kinase (AKT3, Homo sapiens, UniProt Q9Y243); value = 94.1%
target = Tyrosine-protein kinase Lyn (LYN, Homo sapiens, UniProt P07948); value = 37.2%
target = Mitogen-activated protein kinase kinase kinase 10 (MAP3K10, Homo sapiens, UniProt Q02779); value = 48.6%
target = Serine/threonine-protein kinase Chk1 (CHEK1, Homo sapiens, UniProt O14757); value = 37.5%
target = Mitogen-activated protein kinase kinase kinase kinase 2 (MAP4K2, Homo sapiens, UniProt Q12851); value = 8.77%
target = Serine/threonine-protein kinase PLK2 (PLK2, Homo sapiens, UniProt Q9NYY3); value = 106%
target = Tyrosine-protein kinase BTK (BTK, Homo sapiens, UniProt Q06187); value = 98.2%
target = Mast/stem cell growth factor receptor Kit (KIT, Homo sapiens, UniProt P10721); value = 83.7%
target = Protein kinase C iota type (PRKCI, Homo sapiens, UniProt P41743); value = 83.3%
target = Protein kinase C delta type (PRKCD, Homo sapiens, UniProt Q05655); value = 79.8%
target = Leucine-rich repeat serine/threonine-protein kinase 2 (LRRK2, Homo sapiens, UniProt Q5S007); value = 96.5%
target = Ephrin type-A receptor 5 (EPHA5, Homo sapiens, UniProt P54756); value = 98.6%
target = Dual specificity mitogen-activated protein kinase kinase 6 (MAP2K6, Homo sapiens, UniProt P52564); value = 98.3%
target = Interleukin-1 receptor-associated kinase 4 (IRAK4, Homo sapiens, UniProt Q9NWZ3); value = 167%
target = cGMP-dependent protein kinase 1 (PRKG1, Homo sapiens, UniProt Q13976); value = 94.3%
target = Mitogen-activated protein kinase 12 (MAPK12, Homo sapiens, UniProt P53778); value = 112%
target = MAP kinase-interacting serine/threonine-protein kinase 2 (MKNK2, Homo sapiens, UniProt Q9HBH9); value = 92.9%
target = Casein kinase II subunit alpha (CSNK2A1, Homo sapiens, UniProt P68400); value = 86.8%
target = Serine/threonine-protein kinase Nek4 (NEK4, Homo sapiens, UniProt P51957); value = 109%
target = Cyclin-dependent kinase 9, with cyclin T1 (CDK9, Homo sapiens, UniProt P50750); value = 22.6%
target = Casein kinase I isoform alpha (CSNK1A1, Homo sapiens, UniProt P48729); value = 103%

Sample 4 — read-out: acetyl-histone H4 peptide binding; method: AlphaScreen displacement; concentration: 50 µM; measurement: inhibition
Target: Bromodomain-containing protein 4, BD1 (BRD4, Homo sapiens, UniProt O60885)
Structure (SMILES) = O=C1Nc2ccccc2C1=Nc1ccc(C(=O)O)cc1; value = 6.45%
Structure (SMILES) = Nc1nc(Nc2ccc(F)cc2)sc1C(=O)c1ccc(F)cc1; value = 41.6%
Structure (SMILES) = Nc1[nH]nc2nnc(-c3c(-c4ccccc4)nn4ccccc34)cc12; value = 16.1%
Structure (SMILES) = COc1ccc(C(C#N)=Cc2ccccn2)cc1OC; value = -2.9%
Structure (SMILES) = Nc1nc(Nc2ccc(Cl)c(Cl)c2)sc1C(=O)c1ccc(F)cc1; value = 49.1%
Structure (SMILES) = CN1CCN(Cc2c(-c3ccc(F)cc3)[nH]c3ncccc23)CC1; value = 35%
Structure (SMILES) = Cc1cncc2cccc(S(=O)(=O)N3CCCNC[C@@H]3C)c12; value = 2.15%
Structure (SMILES) = COc1cccc(-c2nc(NCCCN(C)C)c3ccccc3n2)c1O; value = 49.5%
Structure (SMILES) = O=C1c2c(O)ccc(O)c2C(=O)c2c(NCCCO)ccc(NCCCO)c21; value = 57.4%
Structure (SMILES) = O=C1NC(=O)c2c1c1c3ccccc3[nH]c1c1[nH]c3cc(Br)ccc3c21; value = 47.7%
Structure (SMILES) = Nc1nc(Nc2ccc(F)cc2)sc1C(=O)c1ccc(Cl)cc1; value = 65.5%
Structure (SMILES) = N#CC(=Cc1cccc(F)c1)c1nc2ccccc2s1; value = 11.1%
Structure (SMILES) = CCCCCOc1ccc(NC(=O)Nc2ccc(Cl)c(Cl)c2)cc1; value = 15.8%
Structure (SMILES) = COc1ccc(C(=O)Nc2ccc3[nH]ncc3c2)c(OC)c1; value = 1.1%
Structure (SMILES) = CN[C@@H]1C[C@H]2O[C@@](C)([C@@H]1OC)n1c3ccccc3c3c4c(c5c6ccccc6n2c5c31)C(=O)N[C@H]4O; value = 33.6%
Structure (SMILES) = c1coc(-c2[nH]c3ncccc3c2CN2CCOCC2)c1; value = 7.55%
Structure (SMILES) = O=C1NC(=O)/C(=C/c2ccc(-c3nc4ccccc4s3)o2)S1; value = 11.3%
Structure (SMILES) = CC(=C(C#N)c1nc2ccccc2s1)c1ccc(Cl)cc1; value = 0%
Structure (SMILES) = COc1cc2ncn(-c3cc(OCc4ccccc4S(C)(=O)=O)c(C#N)s3)c2cc1OC; value = -5.5%
Structure (SMILES) = N#CC(=C1CCCN1)c1nc2ccccc2s1; value = 6.2%

Some of these lines once more (sample 2):
Structure (SMILES) = COc1cccc(NC(=O)c2nc3scc(CN(C)Cc4ccccc4)c3c(=O)[nH]2)c1; value = 6.01%
Structure (SMILES) = Nc1cnc(N2CCc3cc(S(=O)(=O)Nc4c(F)cc(Cl)cc4F)cc(N4CCCC4=O)c32)nc1; value = -1.21%
Structure (SMILES) = CC1CCN(c2ccnc(NCc3cn(C)cn3)n2)CC1; value = 35.1%
Structure (SMILES) = COc1cc(N[C@@H]2CCCC[C@]2(O)C(F)(F)F)ccc1F; value = -2.34%
Structure (SMILES) = C[C@@H]1CN(c2cc(-c3n[nH]c4ccc(OC5(C)CC5)cc34)ncn2)C[C@H](C)O1; value = -17.3%
Structure (SMILES) = NS(=O)(=O)c1cc(NC(=O)Cc2ccccc2)ccc1Oc1cccc(Cl)c1; value = -10.9%
Structure (SMILES) = C[C@H](c1ccnc(Nc2nc3ccc(-c4cc(N(C)C)ncn4)cc3[nH]2)c1)N1CCN(C(=O)CC(F)(F)F)CC1; value = -3.83%
Structure (SMILES) = COc1cc(C(=O)O)ncc1C#Cc1ccccc1NS(=O)(=O)c1cccc2c(N(C)C)ccnc12; value = 6.76%
Structure (SMILES) = NC(=O)c1ccc2nc(-c3ccc(C4(N)CCC4)cc3)c(-c3ccccc3)n2n1; value = 14.6%
Structure (SMILES) = O=c1nc(-c2ccccn2)sc2ccccc12; value = 2%
